Published values gathered from unrelated publications.
Parts stem from different laboratories: compare values within a part only. Changes are numbered by the printed parent chain.

Block 1
Target: Histone acetyltransferase KAT6A, both winged helices, GST fusion (KAT6A, Homo sapiens, UniProt Q92794, residues 1-181)
Technique: protein binding microarray
Form: double-stranded DNA, one strand shown
Sample: in vitro
Tested at: not given
Setting: 8-mer, flanks averaged, mean of 2 arrays, mostly near background
Reference: not given
Direction: higher = stronger binding
Measurement: E-score
Construct (chain): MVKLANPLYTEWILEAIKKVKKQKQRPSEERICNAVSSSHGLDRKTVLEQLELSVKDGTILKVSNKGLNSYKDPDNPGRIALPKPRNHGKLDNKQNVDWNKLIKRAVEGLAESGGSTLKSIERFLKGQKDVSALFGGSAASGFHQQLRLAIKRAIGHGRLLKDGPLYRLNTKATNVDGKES
ACGTATAT: -0.0776
CGGCTCCA: 0.211
CAACTCGC: 0.0336
ACGAGACG: 0.0585
ATCCCGAG: 0.168
GGTCCCCA: -0.0565
AAGTGAGT: -0.114
AGGTCCTG: -0.113
CTTTTTGC: -0.0412
AACTCAGT: -0.192
GGCCCGCA: 0.179
ACGGATCT: 0.0732
CCCGACGC: 0.311
GTCTCAAC: -0.115
GCCAAAAC: 0.00762
CAACATTA: -0.0551

Block 2
Target: Centromere-binding protein 1, full length, His-tagged (CBF1, Saccharomyces cerevisiae, UniProt P17106, residues 1-351)
Sequence of UniProt P17106 (whole entry, looked up): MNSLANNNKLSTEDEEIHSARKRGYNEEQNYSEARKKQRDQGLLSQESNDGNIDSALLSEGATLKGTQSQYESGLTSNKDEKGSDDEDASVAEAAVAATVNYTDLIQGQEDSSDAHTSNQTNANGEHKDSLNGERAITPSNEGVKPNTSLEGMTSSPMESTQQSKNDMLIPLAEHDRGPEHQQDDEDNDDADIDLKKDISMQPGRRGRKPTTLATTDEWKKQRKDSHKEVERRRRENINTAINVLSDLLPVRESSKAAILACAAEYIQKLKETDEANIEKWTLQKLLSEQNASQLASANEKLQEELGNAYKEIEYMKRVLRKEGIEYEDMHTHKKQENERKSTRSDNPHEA
Technique: competition protein-binding microarray
Form: double-stranded DNA, one strand shown
Sample: in vitro
Tested at: 2 µM
Setting: whole 60-bp probe, lowest competitor level
With: Pho4 competitor, 0.05 µM
Direction: higher = stronger binding
Measurement: fluorescence intensity
Constant ends, left off below: … GTCTTGATTCGCTTGACGCTGCTG
TGCGCAACAACTTGGGTTGTGGGTGTATGTCTAGAA: 70.7 a.u.
GAAGGTGCCTCTTCCCACATGGCCGAGCCCTCGCCG: 54.8 a.u.
GTCTTGTCTCATTTTCACGTGGTGTTCCCCACTTCA: 840 a.u.
TCTTCTTTGCCACATCACCTGACGCACCAAAGACAG: 1380 a.u.
ACATAGTAGGAAAATAATGTGCGTAGAATGATAAGA: 91.2 a.u.
CTTTCCCGATCTTGACACGTGTTTTTAGCACATTTG: 1750 a.u.
TTGCTTGCGCTTCTGCATGTGCTTGTGCTTGTGCTT: 83.7 a.u.
CGGGGTTAAGTTTGCTGAGTGGGTGGCTTGCAGCAG: 68.3 a.u.
TGCGCAACAACTTTTCACGTGTCATTATGTCTAGAA: 1280 a.u.
CAATTAGAAAAACAGCACGTGGAGGTATATAGAGAG: 1480 a.u.
TTTCCGCGATGCAGCACCGTGCGGAGAGATCCCAAT: 49.7 a.u.
AATCGTTAACACCGTCACCTGTCATTGTGCAGAACT: 130 a.u.
GTCTTGTCTCATTGCACGGTGGGTGTCCCCACTTCA: 77.3 a.u.
GATTCAAGCTTCTTTTGCGTGATGGAATTTAGGATT: 90.4 a.u.
CTAACGAAGGTTTGCTACGTGGGTGACAAGCCAAGT: 66.9 a.u.
TGTTATTAACGTACCCACGCACAGTGGTGCTATCCA: 56.3 a.u.

Block 3
Target: CCNA1, cyclin fold, Cln2 fusion (human)
Technique: yeast growth competition, sequencing
Sample: yeast
Setting: weak parent motif
Reference: not given
Direction: higher = stronger binding
Measurement: normalised enrichment score
Starting sequence: CDC25A docking peptide (human); PPHRRRLLFACSP; partner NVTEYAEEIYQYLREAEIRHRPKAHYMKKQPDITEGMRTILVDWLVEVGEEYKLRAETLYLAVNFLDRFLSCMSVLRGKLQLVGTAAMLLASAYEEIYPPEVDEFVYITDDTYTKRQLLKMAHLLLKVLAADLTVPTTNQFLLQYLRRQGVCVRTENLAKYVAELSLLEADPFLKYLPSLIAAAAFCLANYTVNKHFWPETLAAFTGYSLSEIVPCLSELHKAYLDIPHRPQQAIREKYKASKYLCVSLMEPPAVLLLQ
F9K: 0.618
L7G: 0.104
P1A: 0.187
R5K F9L: 0.603
S12I: 0.443
H3Y: 0.464
C11Y: 0.172
R6V: 0.35
P13E: 0.271
P1D: 0.215
L8K: 0.508
P2N: 0.161
A10L: 0.0582
P13C: 0.469
P1K: 0.634
P2G: 0.373
H3E: 0.0588
R6P: 0.038
P1R: 0.424

Block 4
Target: RNA binding protein fox-1 homolog 2, RRM domain, GST-SBP tag (RBFOX2, Homo sapiens, UniProt O43251-10, residues 100-194)
Technique: RNA Bind-n-Seq
Form: RNA
Sample: in vitro
Tested at: 365 nM
Setting: natural RNA segment, single round, ends assumed
Reference: no-protein control
Direction: higher = stronger binding
Measurement: RBNS enrichment (R)
Constant ends, left off below: GGGAGUUCUACAGUCCGACGAUC … UGGAAUUCUCGGGUGCCAA
Residues (chain): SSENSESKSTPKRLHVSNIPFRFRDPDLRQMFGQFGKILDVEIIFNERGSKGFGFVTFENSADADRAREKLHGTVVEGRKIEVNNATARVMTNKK
UGCCUUCCUUCCUCCCACUUCUUUCUCCAGGCCUGGUUAACUCUUCCGUUGUCAGCUUCUCCCCCUUCAGCCUGUUUCUGCAGCAGCCAGGGUUCUCCCCCCUACACCCU: 0.819
ACCACCCCUCGCCUCCCCUUCUCCAGGACUAUGAGCUCUUCGUGGAGGCUGUGGAACAAAACACGCUGCAGGAGUUCCUGAAGCUGGCUUGAGUCAAGCCUGUCCAGAGU: 0.348
UAAGUGGCUGGACUUAUCUUGUGAUUUGGGGCCAUGGAAGAUUGGAAACAAAGAUUUUAAGCCUUCUUCUUUUUUUCUUUUUUCUUUUUUUUUUGAGACCAAGUCUCACU: 0.601
GUCUGUGUUGUGCCCAAGUGCCUGCGCCACCCCCACCCUCCUGCUGCGCUGACCGCUGCAUGGUGUCGUGACCUGGGCCUCAUUUGUAGCUGCACUGCCUUUCCUUGUCU: 0.392
CAGGUCUUCCAUCUCCAAGAGGCCACUCUGUCCGGCCAGUGUCUGUUCAGGCCCACUGAAGAAGUGUGCAGAAGUCUUGGAAGUCUGUCCCCGCCCUGAAGAGCUUCAGA: 0.334
ACUUGAACUGAGUUGCAUCUCAUUUUCUUCUGUAAAAACAAUUACAGUAGCACAUUAAUUUAAAUCUGUGUUUUUAACUACCGUGGGAGGAACUAUCCCACCAAAGUGAG: 0.6
AACAAGGACAGUCAGGGUGAAACUUCUUUUGCCAGAAGUGUGGCCUGAGUUGAAUUUCUGGGAGGAUGACGCAGAUGUCUGCUGCAGAGCUGGGCUGAGAGUUCUGCAGU: 1.02
CCAUCCCCUGUCUCUGUCUUCCAGCUGUGAAUAUGAAGGGUAUCCUGUAUGAAACAAAAACAAAACCUGAUAUAUGCAAUAUCUGUCUGUCUGUCUGUACCCAUGGGCCU: 0.721
CAUUUAAAGCCAGAUAGGGCACCCUUGCUGUGUCAAUGAGGAAGUUACUGUAAACACAGUGUUCGACUGAAGCUAGAGUGCAGAGUCGCAGCACUGCUGACUGCCUGCCU: 0.707
UCACAGUAAGGCUGAACUCUGAAAACUAUCCAUUAGAGCUCUGGUUCUGGGUGGGGAUAAGGAUGGGAGGAGAAAGGUUGAGACCUUGGUCUGGCUGUACUGGCAACGCG: 0.521
UGGGAUCUCAGGAGGGCAGCCACGGAGUGGGGAGGCCCCAGAUGCGCUGUGCCAAAGCCAGGUCCGAGGCCAAAGUUCUCCCUGCCAUCCUUGGUGCCGUCCUGCCCCUU: 0.892
GUCAUUCCAUUUCUUUUGUUUGAAGCUAAAGAGAUGUGUAGCUCACAGGGGCUACCUUACCAGUAUAAAGAGCUGAUAACAGUACUCAGAAGAAUCUGUGAACAAAUACU: 0.341

Block 5
Target: RING finger protein unkempt homolog, zinc fingers 1-6, GST-SBP tag (UNK, Homo sapiens, UniProt Q9C0B0, residues 30-357)
Sequence of UniProt Q9C0B0 (30-357, looked up): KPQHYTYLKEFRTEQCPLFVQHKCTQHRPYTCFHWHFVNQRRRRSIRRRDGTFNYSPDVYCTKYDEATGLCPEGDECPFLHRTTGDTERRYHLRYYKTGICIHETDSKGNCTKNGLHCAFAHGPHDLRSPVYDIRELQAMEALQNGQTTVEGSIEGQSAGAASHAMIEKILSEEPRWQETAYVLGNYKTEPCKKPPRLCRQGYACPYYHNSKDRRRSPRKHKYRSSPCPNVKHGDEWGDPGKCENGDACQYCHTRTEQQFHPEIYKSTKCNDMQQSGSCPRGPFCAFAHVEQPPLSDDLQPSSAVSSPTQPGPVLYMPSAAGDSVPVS
Technique: RNA Bind-n-Seq
Form: RNA
Sample: in vitro
Tested at: not given
Setting: RNA with constant flanks, human and mouse sites, ends assumed
Reference: input RNA pool
Direction: higher = stronger binding
Measurement: bound/input enrichment
Constant ends, left off below: GGGAGUUCUACAGUCCGACGAUC … CAACAGAGGAUUGAGCAUCA
GGCAGCCGUUUCUUGCCGGCCCUGGGAGUCUGCUAUGGCGUUCCCUCACCUACAACAGCCUAGUUUCCUUCUGGCUAGCCUGAAAGCUGACUCUAUAAAUAAGCCCUUUGCACAACGUUG: 0.204 ratio
UGCUUGGUGCUGAUUUGUGAACCCAUUCCUCAUCCGUCAAAUAUUGAAAUUCCUUUAGAUAGCAAGACAUUUCUCAGUCGACACAGCCUCGAUAUGAAAUUUUCUUACUGUGAUGAAAGA: 0.44 ratio
AGAACACUUCAAGUUGCGUUAGACAUUUCUUACCGAGCCCCAGGCCUGGCCGCGGUAACUGACUUUUACAUGGGAUUCUUUAACUAUUUGUACUUUUCAUGCCAGAAAAUAAAAAGUUCA: 0.636 ratio
AUGGACGUCACCGAGGAUGAAGAGGAAGAAAUCAAACUGGAGAUAAAUAUGCUGAAGAAGUAUUCUCAUCAUCGAAAUAUUGCCACGUACUAUGGUGCUUUCAUUAAGAAGAGCCCUCCA: 0.316 ratio
GCCCUGUGAGCCUGUAGGAGUAGAAUGGCUCCCCAAAUGUAUGAGUUCCAUCUGCCAUUAUCCCCAGAGGAGUUGUUGAAAAGUGGAGGGGUGAAUCAGUAUGUUGUGCAAGAGGUACUG: 0.272 ratio
UUAUGUAUCAUUGGUUUUAUAUUCUAUGUAUGUCUUUGUGGGAAAAUAUCUUAUUUAUAUGCUCAUCUAAUUUUCAUAAAAUGCCAAAGUGAAGCCUAAUAACAGUUUCAUAGAUUUACA: 1.16 ratio
UUGAAAUCUCUACGAGAACUGAAUGUCAGAAGAAAUUACCUUAAAGUUUUACCACAAGAACUAGUAGAUCUUUCCUUGGUAAAGUUUGACUUUUCCUGCAACAAAGUGCUCGUGAUUCCA: 0.101 ratio
ACUUGCAUAUCUGAAGAAAUGGCAUUCCGGACAAUUUGCGUGUUGGUUGGAGUAUUUAUUUGUUCUAUCUGUGUGAAAGGAUCUUCCCAGCCCCAAGCAAGAGUUUAUUUAACAUUUGAU: 0.274 ratio
CAUUAUUACUCCAUUACUAUUAACUAUCGGAAAAAUGAACUGGAACAGAAGAUGUUGCUAAAUUUGCAUAAGAAGAGUUGGAUGGAAGGUUUGACACUUCAGGACUACAGUGAACAUUGU: 0.256 ratio
GUAUCUUUAACUAGAAUCCUGAAAUGUUCAGAGCAGAGCUUAAUCGAAUUUUUUAAUAAGAUGAAGAAGUGGGAAGACAUGGCAAAUCUACCCCCACAUUUCAGAGAACGUACUGAGAGA: 0.491 ratio
CAACUCCAAAGUCCAUGCAGGCUAACCUUAUAUAGUUUAUAUAGGGUUACUUACAGUGGAUGAGGGCUUAUGGGUUGGAGCAGAGGUGACCUUAAAGCAGCCACACUGGAAGGUCUGCAG: 0.131 ratio

For quick reference, copied from above (block 3):
P1K: 0.634
P1A: 0.187
R5K F9L: 0.603
R6V: 0.35
P2G: 0.373
F9K: 0.618
L8K: 0.508
